{"data": "Measured values from different studies", "TYK2 JH1": "Non-receptor tyrosine-protein kinase TYK2, JH1 (TYK2, Homo sapiens, UniProt P29597)", "TYK2 JH2": "Non-receptor tyrosine-protein kinase TYK2, JH2 (TYK2, Homo sapiens, UniProt P29597)"}
{"Structure (SMILES)": "COc1cc(Nc2nc(C)cc(-c3cnn4nc(OC)ccc34)n2)cc(C(F)(F)F)c1", "target": "TYK2 JH1", "observed": "binding", "method": "competition with immobilised ligand", "tested at": "1 µM", "remaining binding [%]": 61}
{"Structure (SMILES)": "CCN1CCN(Cc2ccc(C(=O)Nc3ccc(C)c(NCc4cnc5[nH]ccc5c4OC)c3)cc2C(F)(F)F)CC1", "target": "TYK2 JH2", "observed": "binding", "method": "competition with immobilised ligand", "tested at": "1 µM", "remaining binding [%]": 100}
{"Structure (SMILES)": "Cc1ccc(-c2c(/C=C(\\C#N)C(=O)NC(C)C)n(CCCO)c3ncnc(N)c23)cc1", "target": "TYK2 JH2", "observed": "cell-free assay", "method": "competition with immobilised ligand", "tested at": "1 µM", "remaining binding [%]": 100}
{"Structure (SMILES)": "CCN1CCN(Cc2ccc(NC(=O)c3ccc(C)c(NC(=O)c4cncc(-c5cnn(C)c5)c4)c3)cc2C(F)(F)F)CC1", "target": "TYK2 JH2", "observed": "binding", "method": "competition with immobilised ligand", "tested at": "1 µM", "remaining binding [%]": 99}
{"Structure (SMILES)": "CNC(=O)C1CCN(c2cc(C)c(F)cc2NC(=O)c2ccc(-c3cc(O)ccc3C)c(C)c2)CC1", "target": "TYK2 JH2", "observed": "binding", "method": "competition with immobilised ligand", "tested at": "1 µM", "remaining binding [%]": 78}
{"Structure (SMILES)": "CC(C)=CC1OC(C)(C)C2C=C3C(=O)C(Cl)=CC(O)C3C3C(O)C4OC4C(=O)C132 (stereo not shown)", "target": "TYK2 JH1", "observed": "cell-free assay", "method": "competition with immobilised ligand", "tested at": "10 µM", "remaining binding [%]": 41}
{"Structure (SMILES)": "CNC1C[S+]2CC[S+]3CC[S+](C1)[Ru-4]321([N]=C=S)[n]2c3ccc(OC)cc3c3c4c(c5cc(F)c[n+]1c5c32)C(=O)NC4=O (stereo not shown)", "target": "Non-receptor tyrosine-protein kinase TYK2, JH1 domain (TYK2, Homo sapiens, UniProt P29597)", "method": "KinomeScan", "tested at": "0.1 µM", "reference": "untreated", "remaining binding [%]": 100}
{"Structure (SMILES)": "CN1CCN(Cc2ccc(NC(=O)c3cccc(C#Cc4cnc(N)c5ncccc45)c3)cc2C(F)(F)F)CC1", "target": "TYK2 JH1", "observed": "cell-free assay", "method": "competition with immobilised ligand", "tested at": "50 nM", "remaining binding [%]": 32}
{"Structure (SMILES)": "COc1cc(Nc2nccc(-c3cnn4nc(OC)ccc34)n2)cc(C(F)(F)F)c1", "target": "TYK2 JH1", "observed": "binding", "method": "competition with immobilised ligand", "tested at": "1 µM", "remaining binding [%]": 100}
{"Structure (SMILES)": "Nc1ncc2c(n1)-c1c([nH]c3ccc(C4=CCOCC4)cc13)CCC2", "target": "TYK2 JH1", "observed": "binding", "method": "competition with immobilised ligand", "tested at": "1 µM", "remaining binding [%]": 54}
{"Structure (SMILES)": "Cc1ccc(-c2n[nH]cc2CNC(=O)C2(C#N)CC2)cc1", "target": "TYK2 (Homo sapiens, UniProt P29597)", "observed": "cell-free assay", "method": "competition with immobilised ligand", "tested at": "10 µM", "remaining binding [%]": 18}
{"Structure (SMILES)": "COc1ccc(NC(=O)Nc2ccc3c(c2)C(=O)N(C(C)CO)CC(C)C(CN(C)Cc2ccc4c(c2)OCO4)O3)cc1 (stereo not shown)", "target": "TYK2 JH1", "observed": "binding", "method": "competition with immobilised ligand", "tested at": "10 µM", "remaining binding [%]": 87}
{"Structure (SMILES)": "CNS(=O)(=O)Nc1nccc(Cc2c(C)c3ccc(Oc4ncccc4F)cc3oc2=O)c1F", "target": "TYK2 JH1", "observed": "binding", "method": "competition with immobilised ligand", "tested at": "10 µM", "remaining binding [%]": 98}
{"Structure (SMILES)": "C=CC(=O)N1CCCC(n2c(=O)c3ncccc3n(Cc3ccc(Oc4ccccc4)cc3)c2=O)C1 (stereo not shown)", "target": "TYK2 JH2", "observed": "cell-free assay", "method": "competition with immobilised ligand", "tested at": "1 µM", "remaining binding [%]": 100}
{"Structure (SMILES)": "COc1c(Cl)cccc1Nc1c(-c2ccncc2C#C[C@@]2(C)CCCN2C(=O)/C=C/CN(C)C)[nH]c2c1C(=O)NCC2", "target": "TYK2 JH1", "observed": "cell-free assay", "method": "competition with immobilised ligand", "tested at": "3 µM", "remaining binding [%]": 98}
{"Structure (SMILES)": "C=CC(=O)N1CCc2ccc(-n3c(=O)ccc4cnc5ccc(-c6cnn(C)c6)cc5c43)cc21", "target": "Non-receptor tyrosine-protein kinase TYK2, JH2 pseudokinase domain (TYK2, Homo sapiens, UniProt P29597)", "method": "KINOMEscan", "tested at": "1 µM", "reference": "DMSO control", "remaining binding [%]": 100}
{"note": "Repeated from above:"}
{"Structure (SMILES)": "CC(C)=CC1OC(C)(C)C2C=C3C(=O)C(Cl)=CC(O)C3C3C(O)C4OC4C(=O)C132 (stereo not shown)", "target": "TYK2 JH1", "observed": "cell-free assay", "method": "competition with immobilised ligand", "tested at": "10 µM", "remaining binding [%]": 41}
